Results pooled from the literature.
Protocols differ between the studies behind these lines. ± marks the error that the study gave. Non-standard residues stand in square brackets, D forms with d. Where no end group is shown, it is not given here. No end group written: not given here. The star is where a group is joined.
ESR1: Estrogen receptor (ESR1, Homo sapiens, UniProt P03372)
Kelch domain-containing protein 2: Kelch domain-containing protein 2 (UniProt Q9Y2U9)
ESR2: Estrogen receptor beta (ESR2, Homo sapiens, UniProt Q92731)
CNR2: Cannabinoid receptor 2 (CNR2, Homo sapiens, UniProt P34972)
Kcnma1: Kcnma1 (Mus musculus, UniProt Q08460)

Substance	target	assay	system	setting	scale	measurement	result
DDESIYINIPDGE	CSK (Homo sapiens, UniProt P41240)	substrate, coupled enzyme	peptide	pH 7.4, room temperature, with: 1 mM ATP, 5 mM MnCl2	–	kcat/Km	180 M⁻¹ s⁻¹
cAMP	Potassium/sodium hyperpolarization-activated cyclic nucleotide-gated channel 2, C-terminal region (Hcn2, Mus musculus, UniProt O88703, R635A)	isothermal titration calorimetry	–	R635A, high-affinity site	–	stoichiometry	0.35 ± 0.02
Clc1ccc(Cl)c(-c2c(Cl)ccc(Cl)c2Cl)c1Cl	ESR1	reporter gene, antagonist, ER-CALUX	T47D.Luc	24 h, with: estradiol 5 pM	–	IC25	7.5 µM
Clc1ccc(C2CC3CCC2N3)cn1 (racemic)	Chrnb2/Chrna6 (Rattus norvegicus, UniProt P12390+P43143, L273S/L280S/L348M/R364A/R365A/R367A)	ion current, agonist	–	concentration not given, rat receptor, unit not given	relative to: acetylcholine maximum current	efficacy	0.54 ± 0.02
IDVRVPEQYQQEHVQGA	Kelch domain-containing protein 2	native mass spectrometry	peptide, 200 mM ammonium acetate	20 µM Kelch domain-containing protein 2, pH 7	relative to: total Kelch domain-containing protein 2 signal	fraction of protein bound	0.8%
Cc1cc(C(=O)N[C@H](CN2CCN(c3cccc(O)c3)[C@@H](C)C2)C(C)C)ccc1Oc1ccccc1	OPRK1 (Homo sapiens, UniProt P41145)	antagonist	CHO	with: U69593	–	Ke	0.63 ± 0.19 nM
COc1cc2c(cc1OC)C(=O)C(CC1CCN(Cc3ccccc3)CC1)C2 (centres unmarked)	CES1 (Homo sapiens, UniProt P23141)	irreversible inhibitor	–	5× IC50 or 200 µM, 1 h, preincubation then inhibitor removal, with: o-nitrophenyl acetate substrate	–	remaining activity	0%
Oc1ccc(-c2c[se]cc2-c2ccc(O)cc2)cc1	ESR2	antagonist	HEK293T	highest tested concentration, 24 h, with: estradiol 10 nM	relative to: estradiol alone	efficacy	49 ± 9%
HPQFEKGG	Kelch domain-containing protein 2	native mass spectrometry	peptide, 200 mM ammonium acetate	20 µM Kelch domain-containing protein 2, pH 7	relative to: total Kelch domain-containing protein 2 signal	fraction of protein bound	1.5%
NC(=O)[C@@H]1CCCN1C(=O)C1(NC(=O)c2nn(Cc3ccc(F)cc3)c3ccccc23)CC1	CNR2	calcium mobilization, agonist	CHO-K1 expressing Gαq16	–	relative to: CP55,940 maximum	Emax	46 ± 6%
GGNWTT	UDP-glucose:protein N-beta-glucosyltransferase (Actinobacillus pleuropneumoniae serotype 5b, UniProt A3N2T3, D215R/Q469A)	substrate	peptide	15 min, pH 8.0, 37 °C, D215R mutant, with: UDP-Glc 100 mM	–	kcat/Km	30 M⁻¹ s⁻¹
Oc1ccc(-c2c[se]cc2-c2ccc(O)cc2F)c(F)c1	ESR2	antagonist	HEK293T	highest tested concentration, 24 h, with: estradiol 10 nM	relative to: estradiol alone	efficacy	58 ± 6%
TLDIFRN (disulfide (positions not given here)) (cyclic, disulfide)	HIV-1 neutralising antibody 4E10	phage binding, M13 phage ELISA	–	concentration not given	lower = stronger binding	binding titer	8.8e+06 M13/mL
O=P(O)(O)OC[C@@H](O)[C@@H](O)CO	Orotidine 5'-phosphate decarboxylase (Saccharomyces cerevisiae S288c, UniProt P03962, D37G)	decarboxylation of FO, activator	–	concentration not given, D37G variant	relative to: wild type	increase in ΔG activation	2.5 kcal/mol
Oc1ccc(-c2cc(Cl)ccc2Cl)cc1	Aequorin-1 (Aequorea victoria, UniProt P07164, C152S/C159S/C187S)	aequorin bioluminescence, inhibitor	–	2 h, with: coelenterazine	–	detection limit	23 µM
CSCC[C@H](NC(C)=O)C(=O)N[C@@H](C)C(=O)N[C@@H](C)C(=O)N[C@H](C(=O)N[C@@H](C)C(=O)NCC(=O)N[C@@H](CC(C)C)C(=O)N[C@@H](Cc1ccc(O)cc1)C(=O)NCC(=O)N[C@@H](CC(C)C)C(=O)NCC(=O)N[C@@H](CCCCN)C(=O)N[C@@H](CCCCN)C(=O)N[C@@H](CCCNC(=N)N)C(=O)N[C@@H](CCC(N)=O)C(=O)N[C@@H](Cc1c[nH]cn1)C(=O)N[C@@H](CCCNC(=N)N)C(=O)N[C@@H](CCCCN)C(=O)N[C@@H](CCCCN)C(=O)N[C@@H](CCC(N)=O)C(N)=O)C(C)C	Kcnma1	blocker, patch clamp	–	3 µM, prepulse -80 mV, test pulse 200 mV, with: high Ca2+	relative to: before block	relative current amplitude	~1
Nc1nnc(S)s1	Peptide deformylase (def, Escherichia coli, UniProt P0A6K3)	–	–	500 µM, immediately, stock in dimethylformamide	relative to: control	remaining activity	101%
Oc1ccc(-c2cc(Br)c(-c3ccc(O)cc3)[se]2)cc1	ESR1	antagonist	HEK293T	highest tested concentration, with: estradiol 10 nM	relative to: estradiol alone	efficacy	161 ± 22%
Nc1nc2c(c(=O)[nH]1)N1CN(c3ccc(C(=O)N[C@@H](CCC(=O)O)C(=O)O)cc3)C[C@H]1CN2	5,10-methylenetetrahydrofolate reductase (metF, Escherichia coli, UniProt P0AEZ1, F223A)	oxidative half-reaction, fast phase, substrate, stopped-flow	–	25 °C	–	observed rate constant	11 ± 2 s⁻¹

Substance	target	assay	system	setting	scale	measurement	result
Cc1cc(O)ccc1-c1ccc(-c2ccc(O)cc2C)[se]1	ESR1	antagonist	HEK293T	highest tested concentration, with: estradiol 10 nM	relative to: estradiol alone	efficacy	96 ± 13%
cyclo(GLWFGPRL) (cyclic)	diapause hormone receptor (Helicoverpa zea, UniProt S5LVZ5)	receptor activation, agonist, aequorin luminescence	CHO-K1 expressing receptor	1 µM	relative to: model ligand response	agonist activity	3.9%
Nc1ccncc1	Kcnma1	K+ current, blocker, outside-out patch, oocytes	–	pH 7.0, open channel block fit, with: Ca2+ 300 µM	–	charge movement	0.61 ± 0.03 e
LRELPPEERPAAGA	Kelch domain-containing protein 2	native mass spectrometry	peptide, 200 mM ammonium acetate	20 µM Kelch domain-containing protein 2, pH 7	relative to: total Kelch domain-containing protein 2 signal	fraction of protein bound	0.5%
C=CCOc1ccc(F)cc1[C@H]1C[C@@H]1CN.Cl	HTR2B (Homo sapiens, UniProt P41595)	–	HEK293	10 µM	–	activity	inactive
Nc1ncnc2c1ncn2[C@@H]1O[C@H](COP(=O)(O)OP(=O)(O)NP(=O)(O)O)[C@@H](O)[C@H]1O	matB (Rhodopseudomonas palustris, UniProt Q6ND88, C106A/K488A/Q457C/R286C)	nucleotide binding	–	0.5 µM protein, pH 7.0, 20 °C, 10 mM MgCl2	relative to: saturating ligand over no ligand	fluorescence ratio	3.5 ± 0.1
CN1[C@@H]2CC[C@H]1C[C@@H](OC(c1ccccc1)c1ccccc1)C2	SLC6A3 (Homo sapiens, UniProt Q01959, A479V/A480V)	[3H]CFT competition	COS-7 transfected	A479V-A480V mutant	relative to: mutant over wild type	affinity loss	~20 fold
Oc1ccc(-c2c[se]cc2-c2ccc(O)c(F)c2)cc1F	ESR2	antagonist	HEK293T	highest tested concentration, 24 h, with: estradiol 10 nM	relative to: estradiol alone	efficacy	10 ± 7%
O=Cc1ccc(COC(=O)c2ccccc2)o1	Hemoglobin subunit alpha, with sickle beta chain (HBA1, Homo sapiens, UniProt P69905)	oxygen affinity	sickle red cell lysate	2000 µM	relative to: untreated	P50 change	38.9 ± 11.9%
RYRHPTPMYY	PIM1 (Homo sapiens, UniProt P11309)	substrate, coupled enzyme	peptide	pH 7.4, room temperature, with: 1 mM ATP, 20 mM MgCl2	–	kcat	2.9 ± 0.1 s⁻¹
DNMNT[pS]EDE (phospho-Ser6; pS = N[C@@H](COP(=O)(O)O)C(=O)O)	CTD nuclear envelope phosphatase 1 (CTDNEP1, Homo sapiens, UniProt O95476)	substrate, MESG-coupled phosphate release	–	25 °C	–	kcat	> 1 s⁻¹
Ac-QDEVD-pNA (N-acetyl, C-pNA; pNA = O=[N+]([O-])c1ccc(N*)cc1)	Caspase-7 (CASP7, Homo sapiens, UniProt P55210)	substrate hydrolysis, substrate, colorimetric	–	pH 7.5	–	kcat	1.05 ± 0.05 s⁻¹
CCOc1ccccc1NC(=O)c1ccccc1NS(=O)(=O)C1CC1	MRGPRX2 (Homo sapiens, UniProt Q96LB1)	receptor activation, antagonist	HEK293 expressing MRGPRX2	concentration not given, with: PAMP	–	activity	inactive
SQLIDKIAAGA	Kelch domain-containing protein 2	native mass spectrometry	peptide, 200 mM ammonium acetate	20 µM Kelch domain-containing protein 2, pH 7	relative to: total Kelch domain-containing protein 2 signal	fraction of protein bound	0.1%
NC(=O)CN1CCC[C@H](CNC(=O)c2nn(Cc3ccc(F)cc3)c3ccccc23)C1	CNR2	calcium mobilization, agonist	CHO-K1 expressing Gαq16	–	relative to: CP55,940 maximum	Emax	36 ± 5%
COc1cccc2c1C(=O)c1c(O)c3c(c(O)c1C2=O)C[C@@](O)(C(C)=O)C[C@@H]3O[C@H]1C[C@H](N)[C@H](O)[C@H](C)O1	SLC22A5 (Homo sapiens, UniProt O76082)	transporter uptake, inhibitor	–	100 µM	–	inhibition	13.7%
C=C1C(=O)N[C@@H](C)C(=O)N(C)[C@@H](C)C(=O)N[C@@H]([C@H](OC(=O)[C@@H](NC(=O)CC)[C@H](O)C(C)C)C(C)C)C(=O)N(C)[C@@H]([C@@H](C)OC)C(=O)O[C@H](C(C)C)[C@H](NC(C)=O)C(=O)O[C@H](Cc2ccccc2)C(=O)N1C	Adenosine receptor A1, with Gαi (ADORA1, Homo sapiens, UniProt P30542)	forskolin-stimulated cAMP accumulation, inhibitor	human cells	concentration not given, with: NECA	–	inhibition of NECA-induced cAMP response	no effect
CC(C)C[C@H](NC(=O)CNC(=O)[C@H](CC(C)C)NC(=O)[C@@H]1CCCN1C(=O)CNC(=O)[C@H](Cc1ccccc1)NC(=O)[C@H](Cc1ccccc1)NC(=O)Cc1ccc2ccccc2c1)C(=O)N[C@@H](CCCNC(=N)N)C(=O)N[C@@H](CO)C(=O)N[C@@H](CCCCN)C(=O)O	MMP9 (Homo sapiens, UniProt P14780)	substrate, HPLC	–	500 µM, 72 h, pH 7.5, 37 °C	–	hydrolysis product	60%
CC(=O)CC(c1ccccc1)c1c(O)c2cccc(O)c2oc1=O (centres unmarked)	UGT1A9 (Homo sapiens, UniProt O60656)	substrate	–	pH 7.4, 37 °C	–	Vmax	9230 pmol/mg/min

A few entries again:
Substance	target	assay	system	setting	scale	measurement	result
DDESIYINIPDGE	CSK (Homo sapiens, UniProt P41240)	substrate, coupled enzyme	peptide	pH 7.4, room temperature, with: 1 mM ATP, 5 mM MnCl2	–	kcat/Km	180 M⁻¹ s⁻¹
Nc1nc2c(c(=O)[nH]1)N1CN(c3ccc(C(=O)N[C@@H](CCC(=O)O)C(=O)O)cc3)C[C@H]1CN2	5,10-methylenetetrahydrofolate reductase (metF, Escherichia coli, UniProt P0AEZ1, F223A)	oxidative half-reaction, fast phase, substrate, stopped-flow	–	25 °C	–	observed rate constant	11 ± 2 s⁻¹
